Measured values pooled from the literature.
Protocols differ between the studies behind these lines. Several values in a cell are separate wells, animals, samples, runs or records.
Target: G protein-coupled receptor kinase 4 (GRK4, Homo sapiens, UniProt P32298)

CNC(=O)C1CCN(c2cc(C)c(F)cc2NC(=O)c2ccc(-c3cc(O)ccc3C)c(C)c2)CC1
remaining binding (binding, competition with immobilised ligand; 1 µM): 99%

COc1c(Cl)cccc1Nc1c(-c2ccncc2C#C[C@@]2(C)CCCN2C(=O)/C=C/CN(C)C)[nH]c2c1C(=O)NCC2
remaining binding (binding, competition with immobilised ligand; 3 µM): 75%

NC(=O)[C@@H](O)C[C@H]1CCc2sc3ncnc(O[C@H]4CC[C@H](N5CCOCC5)CC4)c3c21
inhibition (enzyme activity, inhibitor; 10 µM): 5%

CN1CCN(Cc2ccc(-c3ccc(CO[C@H]4CCC[C@@H]4NC(=O)c4cc(-c5cnn(C)c5)cnc4N)cc3)cc2)CC1
inhibition (enzyme activity, inhibitor; 0.1 µM): -8%

CC(C)=CC1OC(C)(C)C2C=C3C(=O)C(Cl)=CC(O)C3C3C(O)C4OC4C(=O)C132 (centres unmarked)
remaining binding (cell-free assay, competition with immobilised ligand; 10 µM): 85%

CCn1cc(C(=O)O)c(=O)c2c(N)c(F)c(NC3CCCCC3)cc21
inhibition (kinase activity; 0.1 µM, added: ATP at Km): 4%

CNC1C[S+]2CC[S+]3CC[S+](C1)[Ru-4]321([N]=C=S)[n]2c3ccc(OC)cc3c3c4c(c5cc(F)c[n+]1c5c32)C(=O)NC4=O (centres unmarked)
remaining binding (KinomeScan; 0.1 µM; relative to: untreated): 100%

C[C@H](c1ccccc1)N1C(=O)C2=Nc3cccc(Cl)c3CN2C1=S
inhibition (enzyme activity, inhibitor; 1.5 µM): ≥ 85%

C=CC(=O)N1CCCC(n2c(=O)c3ncccc3n(Cc3ccc(Oc4ccccc4)cc3)c2=O)C1 (centres unmarked)
remaining binding (cell-free assay, competition with immobilised ligand; 1 µM): 89%

Cc1ccc(-c2c(/C=C(\C#N)C(=O)NC(C)C)n(CCCO)c3ncnc(N)c23)cc1
remaining binding (cell-free assay, competition with immobilised ligand; 1 µM): 81%

C=CC(=O)N1Cc2nc(-c3cc(-c4cc(Cl)cnc4Cl)c(F)cc3F)n(-c3ccncn3)c2C1
inhibition (cell-free assay, inhibitor; 1 µM): 9.1%

CCN1CCN(Cc2ccc(C(=O)Nc3ccc(C)c(NCc4cnc5[nH]ccc5c4OC)c3)cc2C(F)(F)F)CC1
remaining binding (binding, competition with immobilised ligand; 1 µM): 97%

COCC12C(=O)NC3C4(C(OC)CC1O)C1CC5(O)C(OC)C(O)C(OC(C)=O)(C1C5OC(=O)c1ccccc1)C3(O)C(OC)C24 (centres unmarked)
remaining activity (kinase activity, inhibitor, ProQinase kinase profiling; 25 µM; relative to: control): 85% and 62%

COc1cc(Nc2nccc(-c3cnn4nc(OC)ccc34)n2)cc(C(F)(F)F)c1
remaining binding (binding, competition with immobilised ligand; 1 µM): 94%

C[C@H]1CN(C(=O)c2cn(-c3ccnc(N)n3)c3cc(C#CC4(O)CCCCC4)ccc23)CCN1
inhibition (enzyme activity, inhibitor, FRET; 1 µM): 36%

COc1cc(Nc2nc(C)cc(-c3cnn4nc(OC)ccc34)n2)cc(C(F)(F)F)c1
remaining activity (inhibitor; 1 µM; relative to: control): 85%

Nc1ncc(-c2cc(-c3cnn(CC(F)(F)F)c3)ncc2F)nc1C(=O)NC1CNCC(F)C1 (centres unmarked)
remaining activity (enzyme activity; 1 µM; relative to: DMSO control): 97.5%

NC(=O)C[C@H]1CCc2sc3ncnc(O[C@H]4CC[C@H](N5CCOCC5)CC4)c3c21
inhibition (enzyme activity, inhibitor; 10 µM): 5%

Cc1cnc2nc1Nc1cccc(c1)COC/C=C/COCc1cc(ccc1OCCN1CCOCC1)N2
remaining binding (binding; 0.1 µM): 73%

C[C@]1(O)CCCN(c2nc(Nc3ccc(S(=O)(=O)N[C@H]4CC[C@H](CN5CCN(c6ccc(C7CCC(=O)NC7=O)cc6F)CC5)CC4)cc3)ncc2C(F)(F)F)C1 (some centres unmarked)
remaining binding (binding, competition with immobilised ligand; 1 µM): 6.7%

Nc1ncc2c(n1)-c1c([nH]c3ccc(C4=CCOCC4)cc13)CCC2
remaining binding (binding, competition with immobilised ligand; 1 µM): 87%

O=C(Cc1ccc(OCc2ccccc2)cc1)NC1(C(=O)O)CCN(C(=O)c2ccc(-c3cccc(Cl)c3)cc2)CC1
activity vs control (enzyme activity, inhibitor; 10 µM): 88%

C=CC(=O)N1CCc2ccc(-n3c(=O)ccc4cnc5ccc(-c6cnn(C)c6)cc5c43)cc21
remaining binding (KINOMEscan; 1 µM; relative to: DMSO control): 100%
